# Assay results pooled from the literature.
# Every numbered part comes from another study and shows a few of its results, in no order.

# Set 1 — method: protein-binding microarray; molecule type: double-stranded DNA, one strand shown; medium: in vitro; concentration: 940 nM top; setting: 60-bp whole probe; together with: salmon DNA 0.4 mg/ml; baseline: random background probes; direction: higher = stronger binding
# Target: Interferon regulatory factor 5, full length, phosphomimetic (IRF5, Homo sapiens, UniProt Q13568-2, residues 1-514, S451D/S453D/S456D/S462D)
Sequence,fitted relative affinity
GCCTAGCACTCATGATTGAATCTCCCACTGTGCTAGGTCTTGATTCGCTTGACGCTGCTG,0.0713 z-score
GCCTAGCACTTAGGTATCGGGTATTGGTTAGTGCTAGTCTTGATTCGCTTGACGCTGCTG,5.96 z-score
GCCTAGCACCTCTCTTTCCACTTGTCTTTGTGCTAGGTCTTGATTCGCTTGACGCTGCTG,2.63 z-score
GCCTAGCACGACGGTTCCAGTTTCGGGACGTGCTAGGTCTTGATTCGCTTGACGCTGCTG,4.74 z-score

# Set 2 — method: competition protein-binding microarray; molecule type: double-stranded DNA, one strand shown; medium: in vitro; concentration: 2 µM; together with: Pho4 competitor, 0.05 µM; direction: higher = stronger binding
# Target: Centromere-binding protein 1, full length, His-tagged (CBF1, Saccharomyces cerevisiae, UniProt P17106, residues 1-351)
# Sequence of UniProt P17106 (whole entry, looked up): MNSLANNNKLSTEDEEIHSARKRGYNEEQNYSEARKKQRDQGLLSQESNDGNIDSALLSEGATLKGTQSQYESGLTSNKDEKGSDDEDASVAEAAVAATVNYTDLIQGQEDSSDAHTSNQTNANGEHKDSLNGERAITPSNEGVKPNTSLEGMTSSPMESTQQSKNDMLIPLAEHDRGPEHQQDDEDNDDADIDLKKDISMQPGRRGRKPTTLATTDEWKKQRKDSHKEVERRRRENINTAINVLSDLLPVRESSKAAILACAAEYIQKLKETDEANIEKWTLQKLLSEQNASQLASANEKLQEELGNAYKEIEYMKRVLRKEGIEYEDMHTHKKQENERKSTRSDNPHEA
# Setting: whole 60-bp probe, lowest competitor level
Sequence,fluorescence intensity [a.u.]
CTTTCCCGATCTTTTCACGTGCCCTTAGCACATTTGGTCTTGATTCGCTTGACGCTGCTG,1230
CTAACGAAGGTTTGCTGCGTGGGTGACAAGCCAAGTGTCTTGATTCGCTTGACGCTGCTG,68.7
CGGGGTTAAGTTTTTCACGTGTCATGCTCGCAGCAGGTCTTGATTCGCTTGACGCTGCTG,737

# Set 3 — method: protein binding microarray; molecule type: double-stranded DNA, one strand shown; medium: in vitro; concentration: not given; baseline: not given; direction: higher = stronger binding
# Target: Histone acetyltransferase KAT6A, winged helix 2, GST fusion (KAT6A, Homo sapiens, UniProt Q92794, residues 85-181)
# Setting: 8-mer, flanks averaged, mean of 2 arrays, mostly near background
# Residues (chain): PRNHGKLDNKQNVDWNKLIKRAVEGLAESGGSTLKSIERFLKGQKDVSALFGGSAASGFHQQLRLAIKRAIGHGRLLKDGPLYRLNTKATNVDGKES
Sequence,E-score
TCGTACAA,-0.0241
AGTTTACC,0.0643
CCAATTAC,-0.0967
ATTAACTC,0.102
CGCCCGCG,0.135

# Single results of other studies
Substance,target,assay,system,conditions,how to read,quantity,value
"PhoQ, residues 284 288 289 292 302 303 TLMATV","PhoP, residues 12 14 15 18 19 AGCRL (Escherichia coli, UniProt P23836)","Sort-seq, refers to: YFP reporter",E. coli,"PhoQ-PhoP variant library, together with: 10 µM Mg2+","baseline: high Mg2+ state, higher = stronger signaling",fold induction,4.29
